Results gathered from unrelated publications.
Parts stem from different laboratories: compare values within a part only.
Chain of UniProt O95835 (whole entry, looked up): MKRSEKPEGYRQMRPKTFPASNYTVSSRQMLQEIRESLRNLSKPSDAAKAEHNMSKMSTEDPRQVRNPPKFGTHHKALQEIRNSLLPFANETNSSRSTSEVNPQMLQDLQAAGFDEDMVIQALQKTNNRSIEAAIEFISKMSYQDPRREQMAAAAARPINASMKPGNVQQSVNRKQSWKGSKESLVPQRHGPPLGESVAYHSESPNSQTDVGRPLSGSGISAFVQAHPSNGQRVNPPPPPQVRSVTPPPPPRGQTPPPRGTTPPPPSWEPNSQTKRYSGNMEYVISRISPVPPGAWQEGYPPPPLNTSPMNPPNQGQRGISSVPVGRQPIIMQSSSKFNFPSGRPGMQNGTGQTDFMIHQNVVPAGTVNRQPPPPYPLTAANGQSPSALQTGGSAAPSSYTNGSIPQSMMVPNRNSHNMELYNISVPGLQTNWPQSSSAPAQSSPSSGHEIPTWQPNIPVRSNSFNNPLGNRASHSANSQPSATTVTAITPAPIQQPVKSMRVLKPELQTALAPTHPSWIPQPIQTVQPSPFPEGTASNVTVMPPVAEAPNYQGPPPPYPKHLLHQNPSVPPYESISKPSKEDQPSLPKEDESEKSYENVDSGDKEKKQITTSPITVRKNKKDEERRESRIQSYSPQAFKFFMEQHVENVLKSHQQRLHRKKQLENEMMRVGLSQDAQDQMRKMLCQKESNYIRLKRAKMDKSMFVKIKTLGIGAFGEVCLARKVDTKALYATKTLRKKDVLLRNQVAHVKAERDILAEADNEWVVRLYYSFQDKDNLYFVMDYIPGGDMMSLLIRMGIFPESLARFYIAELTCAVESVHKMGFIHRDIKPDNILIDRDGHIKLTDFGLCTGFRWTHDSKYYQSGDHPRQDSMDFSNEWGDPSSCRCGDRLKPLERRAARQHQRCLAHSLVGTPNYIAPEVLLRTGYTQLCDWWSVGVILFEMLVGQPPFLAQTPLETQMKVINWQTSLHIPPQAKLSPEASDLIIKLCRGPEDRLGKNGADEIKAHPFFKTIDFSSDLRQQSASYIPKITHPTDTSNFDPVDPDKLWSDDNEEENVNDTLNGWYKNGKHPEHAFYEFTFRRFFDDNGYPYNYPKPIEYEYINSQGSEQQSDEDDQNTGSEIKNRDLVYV
Chain of UniProt P07333 (whole entry, looked up): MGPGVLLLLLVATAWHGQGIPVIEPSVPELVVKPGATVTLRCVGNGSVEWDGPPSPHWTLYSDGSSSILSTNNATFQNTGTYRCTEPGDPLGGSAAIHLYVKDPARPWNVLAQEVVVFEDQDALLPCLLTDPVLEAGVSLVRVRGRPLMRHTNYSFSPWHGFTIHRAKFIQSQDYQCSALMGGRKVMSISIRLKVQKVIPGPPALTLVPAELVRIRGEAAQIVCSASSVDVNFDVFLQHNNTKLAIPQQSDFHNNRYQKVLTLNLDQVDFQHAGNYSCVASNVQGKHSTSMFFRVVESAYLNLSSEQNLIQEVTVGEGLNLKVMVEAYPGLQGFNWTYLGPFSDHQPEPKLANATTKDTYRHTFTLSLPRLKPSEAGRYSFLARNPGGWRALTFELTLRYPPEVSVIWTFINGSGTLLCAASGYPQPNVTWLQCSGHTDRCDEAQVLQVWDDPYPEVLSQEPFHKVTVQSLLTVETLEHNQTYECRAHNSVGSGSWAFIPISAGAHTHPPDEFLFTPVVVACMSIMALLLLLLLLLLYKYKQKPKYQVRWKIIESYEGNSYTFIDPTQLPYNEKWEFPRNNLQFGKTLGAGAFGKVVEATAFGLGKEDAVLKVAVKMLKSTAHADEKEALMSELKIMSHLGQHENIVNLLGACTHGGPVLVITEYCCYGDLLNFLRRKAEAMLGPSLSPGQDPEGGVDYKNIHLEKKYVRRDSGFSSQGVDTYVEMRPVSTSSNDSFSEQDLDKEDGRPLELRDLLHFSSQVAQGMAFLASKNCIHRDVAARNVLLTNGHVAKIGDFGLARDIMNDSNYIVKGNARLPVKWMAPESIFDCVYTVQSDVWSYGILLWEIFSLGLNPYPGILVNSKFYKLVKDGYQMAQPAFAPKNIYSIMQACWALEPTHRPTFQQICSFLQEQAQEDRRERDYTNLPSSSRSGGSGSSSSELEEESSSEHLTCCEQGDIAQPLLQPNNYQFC
Chain of UniProt Q9NUL3 (1-200, looked up): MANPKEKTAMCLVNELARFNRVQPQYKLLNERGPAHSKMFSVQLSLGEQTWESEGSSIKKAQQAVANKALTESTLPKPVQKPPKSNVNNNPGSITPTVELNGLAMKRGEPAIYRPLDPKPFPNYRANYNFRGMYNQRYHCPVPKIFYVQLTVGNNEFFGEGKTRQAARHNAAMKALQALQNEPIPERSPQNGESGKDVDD
Chain of UniProt Q9Y616 (whole entry, looked up): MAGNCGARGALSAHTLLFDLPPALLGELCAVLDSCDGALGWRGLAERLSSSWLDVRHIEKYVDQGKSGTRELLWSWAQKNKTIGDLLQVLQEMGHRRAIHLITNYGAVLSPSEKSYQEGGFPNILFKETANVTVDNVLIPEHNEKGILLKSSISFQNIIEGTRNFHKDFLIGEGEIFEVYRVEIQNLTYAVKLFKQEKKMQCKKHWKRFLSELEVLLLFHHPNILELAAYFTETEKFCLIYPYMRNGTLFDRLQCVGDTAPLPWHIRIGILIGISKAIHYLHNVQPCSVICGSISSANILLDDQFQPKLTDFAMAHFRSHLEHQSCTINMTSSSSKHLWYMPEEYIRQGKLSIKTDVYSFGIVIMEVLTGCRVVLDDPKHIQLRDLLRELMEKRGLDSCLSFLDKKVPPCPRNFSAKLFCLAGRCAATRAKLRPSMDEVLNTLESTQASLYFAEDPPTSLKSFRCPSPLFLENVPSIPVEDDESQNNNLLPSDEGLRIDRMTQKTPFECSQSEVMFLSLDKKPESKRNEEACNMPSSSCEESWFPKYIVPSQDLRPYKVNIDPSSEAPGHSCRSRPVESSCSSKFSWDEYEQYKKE

Block 1
Target: RING finger protein unkempt homolog, zinc fingers 1-6, GST-SBP tag (UNK, Homo sapiens, UniProt Q9C0B0, residues 30-357)
Chain of UniProt Q9C0B0 (30-357, looked up): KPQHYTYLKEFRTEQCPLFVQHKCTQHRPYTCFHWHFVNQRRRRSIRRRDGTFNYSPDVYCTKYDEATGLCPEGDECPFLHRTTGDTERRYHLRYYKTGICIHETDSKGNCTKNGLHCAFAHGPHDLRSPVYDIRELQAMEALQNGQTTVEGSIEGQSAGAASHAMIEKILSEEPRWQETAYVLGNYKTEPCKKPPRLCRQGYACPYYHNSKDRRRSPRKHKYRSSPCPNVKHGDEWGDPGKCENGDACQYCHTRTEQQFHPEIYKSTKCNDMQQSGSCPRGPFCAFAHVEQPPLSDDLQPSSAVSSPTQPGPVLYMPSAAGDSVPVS
Method: RNA Bind-n-Seq
Form: RNA
Medium: in vitro
Tested at: not given
Setting: RNA with constant flanks, human-mouse chimeric sites, ends assumed
Baseline: input RNA pool
Reading: higher = stronger binding
Shared flanks, not repeated: GGGAGUUCUACAGUCCGACGAUC … CAACAGAGGAUUGAGCAUCA
Strand | bound/input enrichment
AGAGAUAAAGCAUCUAGGAACAUGCGAGGGUCACGGAUGAAUGGGUUGCCUAGCCCCACUCACAGCGCCCACUGUAGCUUCUACCGAACCAGAACCUUGCAGGCACUGAGUAAUGAGAAG | 0.119 ratio
AGAGAUAAAGCAUCUAGGAACAUGCGAGGCUCCCGGAUGAAUGGACUGCCUAGCCCCACUCACAGCGCCCACUGUAGCUUCUACCGAACCAGAACCUUGCAGGCACUGAGUAAUGAGAAG | 0.191 ratio
GUAAUGUGUCCAUUUAAAACUUAUUUUUAUAGCUAGAUAAAUAUUGUUAGUCUUAGACAAUAGCUCACAUUUUUUGAGAAGCAUGCCCUCCCUGUCCAUUUGUCUUAUAACAUGACCCAG | 38.4 ratio
GGACAUCUUGUCAGGAUUUAUGUUCCUGUGAAACAAGUGAGCACUUUGAUACACUUCAUCUGCUUGUACAUCUGUAUGAUAGAGAAAUGUAAAUAUGUUAAUCCAAGCAAUGUGUCACUU | 0.201 ratio
CACAGAGGAGACCUCCUGUUCCUCACGAAUUUCCGGGAGGACCCCAUCAGAGCUGGUGAAAUAGUUGUUUUUAAAGUUGAAGGAAGAGACAUUCCGAUAGUUCACAGAGUAAUCAAGGUU | 7.57 ratio
UCAUUUUUCUCUUUUCUUUCUUUCCUUUAGGAAAAGCAGAUUAGACUGGUUGUAAGAAAAACAGAAGCCAUGUUUCGAAGACCUGUGUUACAGGUACUUCGUCAGUUUGUAAGACAUGAG | 0.51 ratio
GGACAUCUGUCAAAUUGUAUUUCCCGUGUGAAACAAGUGAACACUCUGAUACACUUCAUCUGCUUGUACAUCUGUAUGAUAGAGAAAUGUAAAUAUGAAUAUAUUUACAAUGUGUCACUU | 0.116 ratio
CCAAUUGUGGAGCAGUACUUGAAGACAAAGAAAAAUUCUAGUCAUUUAAUCAUCAAGUACAUUAGCUGCCGGCUGGUGACACUCAUCAUUAUACUGUUAGCGUGUAUCUACCUGGGCUAU | 0.508 ratio

Block 2
Target: Death-associated protein kinase 1 (DAPK1, Homo sapiens, UniProt P53355)
Chain of UniProt P53355 (whole entry, looked up): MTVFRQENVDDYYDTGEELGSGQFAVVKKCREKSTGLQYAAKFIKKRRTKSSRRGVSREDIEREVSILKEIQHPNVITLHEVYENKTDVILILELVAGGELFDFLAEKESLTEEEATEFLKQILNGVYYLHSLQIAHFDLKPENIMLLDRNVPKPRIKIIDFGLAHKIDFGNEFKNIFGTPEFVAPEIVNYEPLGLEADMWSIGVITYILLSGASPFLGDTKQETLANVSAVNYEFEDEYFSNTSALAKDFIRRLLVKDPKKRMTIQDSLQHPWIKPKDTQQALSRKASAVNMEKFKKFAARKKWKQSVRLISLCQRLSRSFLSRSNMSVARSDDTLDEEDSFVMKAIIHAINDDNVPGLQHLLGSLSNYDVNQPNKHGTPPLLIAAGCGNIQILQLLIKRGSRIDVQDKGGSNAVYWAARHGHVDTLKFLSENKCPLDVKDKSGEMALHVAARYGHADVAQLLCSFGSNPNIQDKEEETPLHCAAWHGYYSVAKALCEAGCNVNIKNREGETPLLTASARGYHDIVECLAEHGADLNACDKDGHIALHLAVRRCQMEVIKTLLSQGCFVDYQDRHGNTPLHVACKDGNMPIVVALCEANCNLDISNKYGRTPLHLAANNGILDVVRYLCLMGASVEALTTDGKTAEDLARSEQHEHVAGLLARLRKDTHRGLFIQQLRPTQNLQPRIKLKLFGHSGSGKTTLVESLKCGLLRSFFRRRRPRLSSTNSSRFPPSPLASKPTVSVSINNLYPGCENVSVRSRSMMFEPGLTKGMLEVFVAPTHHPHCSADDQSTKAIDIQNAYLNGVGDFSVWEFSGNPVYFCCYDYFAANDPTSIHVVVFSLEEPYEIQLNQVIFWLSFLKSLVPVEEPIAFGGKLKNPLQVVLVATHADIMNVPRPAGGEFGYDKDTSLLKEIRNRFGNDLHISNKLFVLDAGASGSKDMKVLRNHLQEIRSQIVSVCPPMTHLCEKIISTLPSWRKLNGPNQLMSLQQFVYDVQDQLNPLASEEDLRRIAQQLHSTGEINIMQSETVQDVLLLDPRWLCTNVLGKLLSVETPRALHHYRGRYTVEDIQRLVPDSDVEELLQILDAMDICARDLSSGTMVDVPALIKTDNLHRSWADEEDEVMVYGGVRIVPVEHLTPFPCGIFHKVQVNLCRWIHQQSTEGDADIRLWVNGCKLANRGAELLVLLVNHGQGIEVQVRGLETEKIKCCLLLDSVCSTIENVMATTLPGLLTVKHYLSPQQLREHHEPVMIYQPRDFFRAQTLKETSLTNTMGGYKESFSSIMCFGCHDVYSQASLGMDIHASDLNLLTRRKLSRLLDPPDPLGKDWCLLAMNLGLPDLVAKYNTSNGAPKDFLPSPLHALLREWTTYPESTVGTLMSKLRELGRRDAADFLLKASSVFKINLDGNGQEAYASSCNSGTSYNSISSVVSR
Observed: enzyme activity
Action: inhibitor
Tested at: 0.5 µM
Baseline: control
SMILES | remaining activity [%]
N#CC(C#N)=C(N)/C(C#N)=C/c1ccc(O)cc1 | 92.7
COc1cc2nccc(Oc3ccc(NC(=S)NC(=O)c4ccccc4C)cc3)c2cc1OC | 101
O=C1NC(=O)C(c2cn(CCCn3ccnc3)c3ccccc23)=C1Nc1ccccc1 | 99.2
Cc1cccc(-c2[nH]c(C(C)(C)C)nc2-c2ccc3c(c2)OCO3)n1 | 102

Block 3
Compound: CNCc1ccccc1-c1csc([C@H](C)Nc2nc(C)nc3cc(OC)c(OC)cc23)c1
Observed: cell-free assay
Method: competition with immobilised ligand
Tested at: 1 µM
target | remaining binding [%]
Macrophage colony-stimulating factor 1 receptor, autoinhibited (CSF1R, Homo sapiens, UniProt P07333) | 100
IRAK3 (Homo sapiens, UniProt Q9Y616) | 83
LATS1 (Homo sapiens, UniProt O95835) | 100
EGFR (Homo sapiens, UniProt P00533, del747-750/T751S) | 64
MAP3K3 (Homo sapiens, UniProt Q99759) | 87

Other studies, line by line
Strand | target | test | system | conditions | how to read | quantity | value
AAAAAAAA (biotin) | Double-stranded RNA-binding protein Staufen homolog 2, dsRBDs 1-2 (STAU2, Homo sapiens, UniProt Q9NUL3, residues 1-200) | protein domain microarray | RNA, in vitro | not given, poly(A) 8-mer RNA, whole probe, immobilized GST-fusion domains, most near background | baseline: GST loading signal, higher = stronger binding | signal ratio | 0.744

Repeated from above (block 1):
Strand | bound/input enrichment
GGACAUCUGUCAAAUUGUAUUUCCCGUGUGAAACAAGUGAACACUCUGAUACACUUCAUCUGCUUGUACAUCUGUAUGAUAGAGAAAUGUAAAUAUGAAUAUAUUUACAAUGUGUCACUU | 0.116 ratio
